Measured values from different studies.
Numbered parts are unrelated; each lists some results of a single study. Positions count from the first letter of the parent shown.

Set 1 — technique: RNA Bind-n-Seq; molecule type: RNA; matrix: in vitro; tested at: 365 nM; relative to: no-protein control; reading: higher = stronger binding
Target: RNA binding protein fox-1 homolog 2, RRM domain, GST-SBP tag (RBFOX2, Homo sapiens, UniProt O43251-10, residues 100-194)
Setting: natural RNA segment, single round, ends assumed
Residues (chain): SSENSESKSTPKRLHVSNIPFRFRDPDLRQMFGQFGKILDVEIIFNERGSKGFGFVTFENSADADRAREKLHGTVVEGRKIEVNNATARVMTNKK
Strand | RBNS enrichment (R)
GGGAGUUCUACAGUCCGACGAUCGAAAAUUAAAACUAUGGAAAAUUUGUCUAGCAUAUCAGAAGUUGUAAAUGCUAUAUCUGGUAUCCAGAGGCUGGCUGUAAAAAGUUCCUUGGGGUCACUCUAUCUCACAUUGGAAUUCUCGGGUGCCAA | 0.639
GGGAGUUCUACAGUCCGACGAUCAUUGUGGACAGUAAUACGCAGUUACAGGGUGUAGUCUGUUUAGAAUCCGUAGUUUGUGGGUAUCAGUUGCGGUAGAGAUGCAACAUUUGUGACUCUGUUGCUAACGGUUAUGGAAUUCUCGGGUGCCAA | 0.471
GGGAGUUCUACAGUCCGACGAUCUGCAGUGUAGAGCUAGAUUAAAAGCAACUCUUUGCCACCUACUCUGCCCUUUUGGCAAAGUUACCUUGAACAAAGAAUCUUAAGGGUUUAUUAAGAACUCUUUAUUUUCUUGGAAUUCUCGGGUGCCAA | 0.294
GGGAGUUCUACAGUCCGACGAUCAGCAACCUGAAGGGAUUCCUUCAGCUUACCUGGUAACCACAGCUAGUAACUAAAACACCCUUCUCUCGGAAUAAUAGACCCUGAAGUCUCUCUUUUUCAAGUUGUCCUUUUGGAAUUCUCGGGUGCCAA | 0.259
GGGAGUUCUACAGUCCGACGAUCAGCUGUUGCAAUCAAGGCCAUGGCAAAAUAACCGGCUUCCAGGGUGGCGGUGGUGGCAGCAGUGAUCCAUGAGCCUACAGAGGCCCCUCCCCCAGCCAGGUUCUGCUCUGUGGAAUUCUCGGGUGCCAA | 0.507
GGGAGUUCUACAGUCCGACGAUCACCUGGACUCCAGAAUUCACCCUCUCCCCUGCAGUCUGGGUUCCCAGACUGAGUCCUCUCCCCAAAUCAGGGCUCUAGACCCGAGCCCUCCAAACCUGGACUCUGGGACUUGGAAUUCUCGGGUGCCAA | 0.344
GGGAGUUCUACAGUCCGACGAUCUCCCACAGGUGAGCAGGGCUCCUGUCCACCAGCACACUCAGUUCUCUUCCCUGCAGUGUUUUCAUUUUAUUUUAGCCAAACAUUUUGCCUGUUUUCUGUUUCAAACAUGAUGGAAUUCUCGGGUGCCAA | 2.3
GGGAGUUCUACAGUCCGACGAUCAGAGUGCUGCAGAGUCUAUGUCUGCUGACCACCUGUGCUACCACUUAACAAUGAGCAUAGCUGGUCUCAGCCAGGGCACUCAGCACCUUCCCUUAAGGAGCAAGAAGCGCUGGAAUUCUCGGGUGCCAA | 0.233
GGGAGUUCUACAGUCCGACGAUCAAUGUCAGGUGCUCUUGUCUGAUGUAGAAGUCUUUGAUGAGGAAGCCUUCUUUCCCUUGGGGUCUCUGGAAGAUCCUAGCAGACUUUGCCUGUGGGCCUGCUCAGCAUGAUGGAAUUCUCGGGUGCCAA | 14.5
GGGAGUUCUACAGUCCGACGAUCUUUUAAGAUAAAAACUGCACAAAAGGGGAGUGAGAGAGACUAGUUUCCACAUCCUUCCCUCCUUUAGUGAAGCCCCCGAGGUUGUGUCCAGGGUGAUGAGUGUGGACGGGUGGAAUUCUCGGGUGCCAA | 0.852
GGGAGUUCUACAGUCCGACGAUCUGUAGUUUUACUUUCCUAAGGAAUUACCAAGAAUAUCCUUUAAAAUUUAAAAGGAUGGCAAGUUGCAUCAGAAAGCUUUAUUUUGAGAUGUAAAAAGAUUCCCAAACGUGUGGAAUUCUCGGGUGCCAA | 0.374
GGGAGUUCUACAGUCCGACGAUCACUAGGAGGCCUGCAGUUAUUUUUGAAUGUGAAAAUGCAUUUGCGUUCAUCUUGUCUAUUUUUUCUCUUCAUGUUGUAACAAAAAGGAAAAAAGAAAAAAAAAUCCCAUCUGGAAUUCUCGGGUGCCAA | 0.571

Set 2 — technique: protein-binding microarray; molecule type: double-stranded DNA, one strand shown; matrix: in vitro; tested at: 2200 nM top; setting: 60-bp whole probe; added: salmon DNA 0.4 mg/ml; relative to: random background probes; reading: higher = stronger binding; constant ends, left off below: GCCTAGCAC … GTCTTGATTCGCTTGACGCTGCTG
Target: Interferon regulatory factor 7, full length, phosphomimetic (IRF7, Homo sapiens, UniProt Q92985, residues 1-503, S471D/S472D/S475D/S476D/S477D/S483D/S484D/S487D)
Target sequence (chain): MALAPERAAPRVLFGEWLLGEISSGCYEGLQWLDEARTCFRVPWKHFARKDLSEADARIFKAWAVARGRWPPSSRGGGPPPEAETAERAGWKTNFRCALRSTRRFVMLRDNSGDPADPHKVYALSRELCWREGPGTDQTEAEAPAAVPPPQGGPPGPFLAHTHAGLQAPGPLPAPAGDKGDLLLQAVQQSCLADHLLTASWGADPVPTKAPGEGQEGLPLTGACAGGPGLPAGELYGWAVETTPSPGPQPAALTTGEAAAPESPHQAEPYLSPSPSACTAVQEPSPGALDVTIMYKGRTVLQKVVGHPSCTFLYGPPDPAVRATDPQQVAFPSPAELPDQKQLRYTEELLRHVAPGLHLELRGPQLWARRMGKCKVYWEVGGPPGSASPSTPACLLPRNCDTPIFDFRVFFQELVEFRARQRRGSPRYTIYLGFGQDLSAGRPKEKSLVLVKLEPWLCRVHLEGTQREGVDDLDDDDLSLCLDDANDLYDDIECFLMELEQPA
Strand | fitted relative affinity
TCAGCTTTCTCTTTCATACTGTGCTAG | 5.58 z-score
TCATCTTTTTTGTTCCAACTGTGCTAG | 1.75 z-score
TCACCTATAGGTTTCTAACTGTGCTAG | 1.01 z-score
TTAGATATCAGTCTCCATTAGTGCTAG | 0.396 z-score
TTAGTTTTCGGGTATCGATTAGTGCTA | 6.36 z-score
TTACATATCAGACTGGATTAGTGCTAG | 0.576 z-score
GACGGTATCGACTATCAGGACGTGCTA | -0.0922 z-score
TACGGTTTCGGGTATCGGGACGTGCTA | 6.39 z-score
TTAGTACTGGGGACTGGATTAGTGCTA | -0.124 z-score
TTTTTTTTTTTTTTTTTGTAGTGCTAG | 1.95 z-score
GACGGACTCCTTCTCCTGACGTGCTAG | 0.619 z-score
TTAGATTTCAGTCTCGAATAGTGCTAG | 0.566 z-score
TTAGAACTGAGATTCGATTAGTGCTAG | 0.22 z-score
CTGTTTTTCTCACCACATTTTGTGCTA | 2.68 z-score
TTAGGTCGCGGTTTCGGTTAGTGCTAG | 5.84 z-score
TCAGGTTTACCAGATCATACTGTGCTA | 0.461 z-score
AAACCATCCTGTATGGATGTGTGCTAG | 0.464 z-score
TTAGATTCCAGACTGGATTAGTGCTAG | 0.0193 z-score
TCAAATATATATTCATAACTGTGCTAG | 0.0938 z-score
GACGAACTGGGGTATCGATACGTGCTA | 0.292 z-score
GTCGGTATCGGGTATCGGGACGTGCTA | 0.483 z-score
TCTGTTTCCTCTTTCTTTGCGTGCTAG | 5.26 z-score

Set 3 — target: UBE2O UBC core domain (UniProt Q9C0C9); technique: yeast two-hybrid; matrix: yeast; setting: mostly zero background; relative to: not given; reading: higher = stronger interaction
Chain of UniProt Q9C0C9 (whole entry, looked up): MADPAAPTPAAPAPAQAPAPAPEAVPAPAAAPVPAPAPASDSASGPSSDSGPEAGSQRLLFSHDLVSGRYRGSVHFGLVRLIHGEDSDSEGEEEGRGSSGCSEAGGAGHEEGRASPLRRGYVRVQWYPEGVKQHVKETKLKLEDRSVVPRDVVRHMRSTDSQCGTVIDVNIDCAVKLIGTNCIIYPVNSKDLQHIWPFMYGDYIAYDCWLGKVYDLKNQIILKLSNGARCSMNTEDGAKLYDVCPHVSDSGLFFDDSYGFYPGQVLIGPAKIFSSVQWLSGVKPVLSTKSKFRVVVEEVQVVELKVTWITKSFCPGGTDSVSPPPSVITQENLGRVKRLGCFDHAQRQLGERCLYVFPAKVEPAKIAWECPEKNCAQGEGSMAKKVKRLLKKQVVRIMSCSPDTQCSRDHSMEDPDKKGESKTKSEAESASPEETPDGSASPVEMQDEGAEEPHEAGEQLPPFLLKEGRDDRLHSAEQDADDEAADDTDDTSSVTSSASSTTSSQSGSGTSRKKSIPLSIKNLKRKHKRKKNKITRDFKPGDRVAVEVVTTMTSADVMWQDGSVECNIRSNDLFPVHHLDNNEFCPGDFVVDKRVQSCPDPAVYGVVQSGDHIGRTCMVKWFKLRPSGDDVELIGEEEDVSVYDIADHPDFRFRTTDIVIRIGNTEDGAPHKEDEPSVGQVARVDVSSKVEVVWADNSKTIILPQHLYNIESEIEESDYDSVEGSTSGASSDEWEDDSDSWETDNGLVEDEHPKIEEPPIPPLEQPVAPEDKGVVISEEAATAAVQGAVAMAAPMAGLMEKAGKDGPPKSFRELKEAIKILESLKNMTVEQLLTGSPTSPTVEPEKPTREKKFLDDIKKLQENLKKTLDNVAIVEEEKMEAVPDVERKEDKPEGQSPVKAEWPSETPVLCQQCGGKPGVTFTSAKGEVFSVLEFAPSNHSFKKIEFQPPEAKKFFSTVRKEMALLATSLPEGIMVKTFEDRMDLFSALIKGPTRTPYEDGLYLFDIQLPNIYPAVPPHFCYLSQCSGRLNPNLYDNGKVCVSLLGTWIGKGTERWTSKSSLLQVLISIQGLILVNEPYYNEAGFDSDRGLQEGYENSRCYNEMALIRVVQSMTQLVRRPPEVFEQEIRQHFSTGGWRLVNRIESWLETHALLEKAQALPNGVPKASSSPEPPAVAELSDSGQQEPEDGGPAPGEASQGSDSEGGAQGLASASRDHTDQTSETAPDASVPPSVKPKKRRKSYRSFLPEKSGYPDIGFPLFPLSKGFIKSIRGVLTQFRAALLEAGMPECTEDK
B1: SYTL4 RING domain (UniProt Q96C24); chain RGSQHYSDRTCARCQESLGRLSPKTNTCRGCNHLVCRDCRIQESNGTWRCKVCAKEIELKKAT
B2: SH3RF1 RING domain (UniProt Q7Z6J0); chain DESALLDLLECPVCLERLDASAKVLPCQHTFCKRCLLGIVGSRNELRCPECRTLVGSGVEEL
B3: RBCK1 RING domain (UniProt Q9BYM8); chain SLVLNTEPAECPVCYSVLAPGEAVVLRECLHTFCRECLQGTIRNSQEAEVSCPFIDNTYSCSGKLLEREIK
B4: MAP3K1 RING domain (UniProt Q13233); chain NSIKDEEEQMCPICLLGMLDEESLTVCEDGCRNKLHHHCMSIWAEECRRNREPLICPLCRSKWRSHDFYS
B5: DZIP3 RING domain (UniProt Q86Y13); chain PDEEEEEEEPCVICHENLSPENLSVLPCAHKFHAQCIRPWLMQQGTCPTCRLHVLLPEEFP
B6: MDM4 RING domain (UniProt O15151); chain MEDCQNLLKPCSLCEKRPRDGNIIHGRTGHLVTCFHCARRLKKAGASCPICKKEIQLVIKVF
B7: RNF19A RING domain (UniProt Q9NV58); chain ISKQIGDFIECPLCLLRHSKDRFPDIMTCHHRSCVDCLRQYLRIEISESRVNISCPECTERFNPHDIR
B8: RNF121 RING domain (UniProt Q9H920); chain MPTKHLSDSVCAVCGQQIFVDVSEEGIIENTYRLSCNHVFHEFCIRGWCIVGKKQTCPYCKEKVDLKRMFS
B9: ZMIZ2 RING domain (UniProt Q8NF64); chain GTIPGTPGPNGEDGVEQTAIKVSLKCPITFRRIQLPARGHDCRHIQCFDLESYLQLNCERGTWRCPVCNKTALLEGLEVDQYMLGILIYIQNSDYEEITIDPTCSWK
Sequence | lacZ reporter activity
B1 (SYTL4 RING domain) | 0
KETIKKTTKPCPRCHVPVEKNGGCMHMKCPQPQCRLEWCWNCGCEWNRVCMG (PRKN RING domain (UniProt O60260)) | 0
B2 (SH3RF1 RING domain) | 0
B3 (RBCK1 RING domain) | 0
B4 (MAP3K1 RING domain) | 0
B5 (DZIP3 RING domain) | 0
B6 (MDM4 RING domain) | 0
KLRKLKEAMLCMVCCEEEINSTFCPCGHTVCCESCAAQLQSCPVCRSRVEHVQHVY (MYLIP RING domain (UniProt Q8WY64)) | 0
FDGDVDPDLKCALCHKVLEDPLTTPCGHVFCAGCVLPWVVQEGSCPARCRGRLSAKELN (PDZRN3 RING domain (UniProt Q9UPQ7)) | 0
B7 (RNF19A RING domain) | 0
B8 (RNF121 RING domain) | 0
B9 (ZMIZ2 RING domain) | 0

Set 4 — technique: protein binding microarray; molecule type: double-stranded DNA, one strand shown; matrix: in vitro; tested at: not given; relative to: not given; reading: higher = stronger binding
Target: Histone acetyltransferase KAT6A, both winged helices, GST fusion (KAT6A, Homo sapiens, UniProt Q92794, residues 1-181)
Setting: 8-mer, flanks averaged, mean of 2 arrays, mostly near background
Target sequence (chain): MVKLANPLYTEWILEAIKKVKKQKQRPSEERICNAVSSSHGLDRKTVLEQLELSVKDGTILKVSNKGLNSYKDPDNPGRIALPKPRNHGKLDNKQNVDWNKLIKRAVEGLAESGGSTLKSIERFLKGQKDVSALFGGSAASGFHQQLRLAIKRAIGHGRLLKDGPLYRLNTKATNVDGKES
Strand | E-score
CCTCGTCG | -0.0166
AATACATC | 0.0743
AAAAGTGT | -0.0296
CCAGGGTC | -0.202
CAATAGTA | -0.165
AATTCGGG | 0.00802
TGTAAAAA | -0.186
ATCTACAC | -0.119
CATGGTGA | -0.0192
AAGTAAGA | -0.0261
CCCCACGC | 0.0419
ATACCATG | -0.125
TCCCCACA | -0.198
CCAATCTA | -0.189
CAGACTGC | 0.0241
AACGGGCA | 0.228
ACTATCAG | -0.184

Set 5 — target: CCND2, cyclin fold, Cln2 fusion (human); technique: yeast growth competition, sequencing; matrix: yeast; setting: weak parent motif; relative to: not given; reading: higher = stronger binding
Parent: SCAPER docking peptide (human); SNARRSLNFGGST; partner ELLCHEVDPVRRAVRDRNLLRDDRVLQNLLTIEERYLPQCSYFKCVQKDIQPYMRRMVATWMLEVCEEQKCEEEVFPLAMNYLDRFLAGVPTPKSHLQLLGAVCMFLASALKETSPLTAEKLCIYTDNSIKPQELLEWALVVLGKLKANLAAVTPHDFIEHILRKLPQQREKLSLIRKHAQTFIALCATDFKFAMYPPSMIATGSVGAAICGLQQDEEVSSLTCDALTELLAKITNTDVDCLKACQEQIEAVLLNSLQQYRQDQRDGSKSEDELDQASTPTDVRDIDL
Variant | normalised enrichment score
SNWRRSLNFGGST [A3W] | 0.0255
SDARRSLNFGGST [N2D] | 0.179
SNARRHLNFGGST [S6H] | 1.02
SNCRRSLNFGGST [A3C] | 0.355
SNARRSLNVGGST [F9V] | 0.0438
ANARRSLNFGGST [S1A] | 0.443
SNARCSLNFGGST [R5C] | 0.0776
TNARRSLNFGGST [S1T] | 0.561
SNARRSLTFGGST [N8T] | 0.574
SNARRSFNFGGST [L7F] | -0.0865
SNARRSLNFGTST [G11T] | 0.744
SNARRQLNFGGST [S6Q] | 0.809
SNARRSWNFGGST [L7W] | -0.353
WNARRSLNFGGST [S1W] | 0.547
SNARRSLNQGGST [F9Q] | -0.0315
SNARRSLNIGGST [F9I] | 0.257

A few entries again (set 3):
Sequence | lacZ reporter activity
B4 (MAP3K1 RING domain) | 0
B5 (DZIP3 RING domain) | 0
B6 (MDM4 RING domain) | 0
KLRKLKEAMLCMVCCEEEINSTFCPCGHTVCCESCAAQLQSCPVCRSRVEHVQHVY (MYLIP RING domain (UniProt Q8WY64)) | 0
FDGDVDPDLKCALCHKVLEDPLTTPCGHVFCAGCVLPWVVQEGSCPARCRGRLSAKELN (PDZRN3 RING domain (UniProt Q9UPQ7)) | 0
B7 (RNF19A RING domain) | 0
B8 (RNF121 RING domain) | 0
B9 (ZMIZ2 RING domain) | 0
